Assay results pooled from the literature.
Each line is one published result; not all experiments were run side by side. “And” joins repeats or separate records; there may be more than shown.
Target: Mitogen-activated protein kinase kinase kinase kinase 4 (MAP4K4, Homo sapiens, UniProt O95819)

For `CNC1C[S+]2CC[S+]3CC[S+](C1)[Ru-4]321([N]=C=S)[n]2c3ccc(OC)cc3c3c4c(c5cc(F)c[n+]1c5c32)C(=O)NC4=O` (stereo not shown), the remaining binding was 97% (KinomeScan; 0.1 µM; baseline: untreated).
For `C[C@H]1CN(C(=O)c2cn(-c3ccnc(N)n3)c3cc(C#CC4(O)CCCCC4)ccc23)CCN1`, the inhibition was 26% (enzyme activity, inhibitor, FRET; 1 µM).
For `N[C@H]1CC[C@H](Nc2nccc(-c3cccnc3Oc3ccc(NC(=O)NC4CC4)c4ccccc34)n2)CC1`, “log2 LFQ intensity” read 22.1 and 22 and 21.8 (kinobead competition pulldown; HEK293/HCT116 lysate mixture; 10 µM, 1 h, 4 °C; lower = stronger competition).
`C=CC(=O)N1CCc2ccc(-n3c(=O)ccc4cnc5ccc(-c6cnn(C)c6)cc5c43)cc21` gave a remaining binding of 100% (KINOMEscan; 1 µM; baseline: DMSO control).
With `CCN1CCN(Cc2ccc(NC(=O)c3ccc(C)c(NC(=O)c4cncc(-c5cccs5)c4)c3)cc2C(F)(F)F)CC1` the remaining binding was 7.2% (binding, competition with immobilised ligand; 1 µM).
The inhibition of `C=CC(=O)Nc1cccc(-c2cnc3[nH]cc(C(=O)NC(C)(C)C)c3n2)c1` is reported as 25% (enzyme activity, inhibitor; 0.1 µM).
For `NC(=O)[C@@H](O)C[C@H]1CCc2sc3ncnc(O[C@H]4CC[C@H](N5CCOCC5)CC4)c3c21`, the inhibition was 30% (enzyme activity, inhibitor; 10 µM).
The inhibition of `Cc1cccc(O[C@H]2CCC[C@@H](C(C)CNCc3ccncc3)C2)c1` (relative stereo) is reported as -6% (enzyme activity, inhibitor; 10 µM).
`CNC(=O)C[C@H](Cc1ccc(C#N)cc1)NC(=O)c1cc(-c2ccc(CN[C@H](C)c3ccc(C)cc3)o2)ccc1Cl`: “activity vs control” 99% (enzyme activity, inhibitor; 1 µM).
`CC(C)=CC1OC(C)(C)C2C=C3C(=O)C(Cl)=CC(O)C3C3C(O)C4OC4C(=O)C132` (stereo not shown) gave a remaining binding of 94% (cell-free assay, competition with immobilised ligand; 10 µM).
`CCN1CCN(Cc2ccc(C(=O)Nc3ccc(C)c(NCc4cnc5[nH]ccc5c4OC)c3)cc2C(F)(F)F)CC1` gave a remaining binding of 0.75% (binding, competition with immobilised ligand; 1 µM).
For `C=CC(=O)N1CCCC(n2c(=O)c3ncccc3n(Cc3ccc(Oc4ccccc4)cc3)c2=O)C1` (stereo not shown), the remaining binding was 73% (cell-free assay, competition with immobilised ligand; 1 µM).
`Cc1ccc(-c2c(/C=C(\C#N)C(=O)NC(C)C)n(CCCO)c3ncnc(N)c23)cc1` gave a remaining binding of 95% (cell-free assay, competition with immobilised ligand; 1 µM).
With `COc1cc(Nc2nc(C)cc(-c3cnn4nc(OC)ccc34)n2)cc(C(F)(F)F)c1` the remaining activity was 99% (inhibitor; 1 µM; baseline: control).
The inhibition of `C=CC(=O)Nc1cc(-c2nn(C3CCN(CCNC(=O)[C@H](C)CCC45CC6CC(CC(C6)C4)C5)CC3)c3ncnc(N)c23)ccc1Oc1ccccc1` is reported as 8.6% (inhibitor, KiNativ profiling; biochemical; 2 µM).
`COc1c(Cl)cccc1Nc1c(-c2ccncc2C#C[C@@]2(C)CCCN2C(=O)/C=C/CN(C)C)[nH]c2c1C(=O)NCC2` has a remaining binding of 48% (binding, competition with immobilised ligand; 3 µM).

Some of these lines once more:
For `N[C@H]1CC[C@H](Nc2nccc(-c3cccnc3Oc3ccc(NC(=O)NC4CC4)c4ccccc34)n2)CC1`, “log2 LFQ intensity” read 22.1 and 22 and 21.8 (kinobead competition pulldown; HEK293/HCT116 lysate mixture; 10 µM, 1 h, 4 °C; lower = stronger competition).
`C=CC(=O)N1CCc2ccc(-n3c(=O)ccc4cnc5ccc(-c6cnn(C)c6)cc5c43)cc21` gave a remaining binding of 100% (KINOMEscan; 1 µM; baseline: DMSO control).
